Published values of several laboratories.
Each line is one published result; not all experiments were run side by side. ± gives the spread as reported.
Cell line: T47D

COc1ccc(/C=C2\SC(N3N=C(c4ccc(OC)cc4)CC3c3ccc(F)cc3)=NC2=O)cc1 (centres unmarked)  IC50 (cell growth or viability, MTT): 14.4 µM
Cc1c(C)c(C)c(C[n+]2cn(CC(C)(C)c3ccccc3)c3ccccc32)c(C)c1C  IC50 (cell growth or viability, MTT; 48 h): 34 µM
Cc1cc(C#N)cc(C)c1Oc1cc(Nc2ccc(C#N)cc2)nc2cnccc12  IC50 (48 h): > 128 µM
CCCCCCCCC=CCCCCCCCCn1c(-c2cccnc2)nc(-c2ccc(C)cc2)c1-c1ccc(C)cc1  IC50 (cell growth or viability, SRB; 48 h): > 100 µM
Cc1ccc(C(C)C)cc1.Oc1ccccc1C=NNC1=Nc2ccccc2-c2[nH]c3ccc(Br)cc3c2C1.[Cl-].[Cl][Ru+]  IC50 (cell growth or viability, MTT; 96 h): 0.8 µM
Cc1cc(C=O)cc(C)c1Oc1cc(Nc2ccc(C#N)cc2)nc2ccncc12  IC50 (48 h): 42.1 ± 3.9 µM
CCCCCCCCn1c(-c2cccnc2)nc(-c2ccc(C)cc2)c1-c1ccc(C)cc1  IC50 (cell growth or viability, SRB; 24 h): 48.8 µM
Cc1cc(C)c(C[n+]2cn(C3CCCC3)c3ccccc32)c(C)c1  IC50 (cell growth or viability, MTT; 48 h): 24 µM
Cc1ccc(-c2nc(-c3cccnc3)[nH]c2-c2ccc(C)cc2)cc1  IC50 (cell growth or viability, SRB; 24 h): > 100 µM
O=C1/C(=C/c2ccc(B(O)O)cc2)CC/C1=C\c1ccc(B(O)O)cc1  IC50 (cell growth or viability, MTT; 24 h): 170 µM
CCCn1c(-c2cccnc2)nc(-c2ccc(C)cc2)c1-c1ccc(C)cc1  IC50 (cell growth or viability, SRB; 48 h): > 100 µM
COc1ccc(C2=NN(C3=NC(=O)/C(=C/c4ccc(N(C)C)cc4)S3)C(c3ccc(F)cc3)C2)cc1 (centres unmarked)  IC50 (cell growth or viability, MTT): > 100 µM
Cc1cc(C#N)cc(C)c1Oc1cc(Nc2ccc(C#N)cn2)nc2cnccc12  IC50 (48 h): > 127 µM
c1ccc(-c2nc(-c3cccnc3)[nH]c2-c2ccccc2)cc1  IC50 (cell growth or viability, SRB; 48 h): > 100 µM
COc1ccc(C2=NN(C3=NC(=O)C(=Cc4ccc(O)cc4)S3)C(c3ccc(F)cc3)C2)cc1 (centres unmarked)  IC50 (cell growth or viability, MTT): 0.88 µM
Cc1cc(C=O)cc(C)c1Oc1cc(Nc2ccc(C#N)cn2)nc2ccncc12  IC50 (48 h): > 126 µM
CN(C)c1ccc(/C=C2\SC(N3N=C(c4cccs4)CC3c3ccc(F)cc3)=NC2=O)cc1 (centres unmarked)  IC50 (cell growth or viability, MTT): 29.1 µM
Cc1ccc(C(C)C)cc1.Cc1ncc(CO)c(C=NNC2=Nc3ccccc3-c3[nH]c4ccc(Br)cc4c3C2)c1O.[Cl-].[Cl][Os+]  IC50 (cell growth or viability, MTT; 96 h): 12 µM
CCCCCC(C)n1c(-c2cccnc2)nc(-c2ccc(C)cc2)c1-c1ccc(C)cc1 (centres unmarked)  IC50 (cell growth or viability, SRB; 24 h): 44.1 µM
Cc1ccc(C2=NN(C3=NC(=O)C(=Cc4ccc(O)cc4)S3)C(c3ccc(F)cc3)C2)cc1 (centres unmarked)  IC50 (cell growth or viability, MTT): 0.75 µM

Some of these lines once more:
Cc1ccc(C(C)C)cc1.Oc1ccccc1C=NNC1=Nc2ccccc2-c2[nH]c3ccc(Br)cc3c2C1.[Cl-].[Cl][Ru+]  IC50 (cell growth or viability, MTT; 96 h): 0.8 µM
